Published values from different studies.
Parts stem from different laboratories: compare values within a part only.

Study 1
Target: Histone acetyltransferase KAT6A, both winged helices, GST fusion (KAT6A, Homo sapiens, UniProt Q92794, residues 1-181)
Method: protein binding microarray
Molecule type: double-stranded DNA, one strand shown
Matrix: in vitro
Tested at: not given
Setting: 8-mer, flanks averaged, mean of 2 arrays, mostly near background
Relative to: not given
Direction: higher = stronger binding
Measurement: E-score
Residues (chain): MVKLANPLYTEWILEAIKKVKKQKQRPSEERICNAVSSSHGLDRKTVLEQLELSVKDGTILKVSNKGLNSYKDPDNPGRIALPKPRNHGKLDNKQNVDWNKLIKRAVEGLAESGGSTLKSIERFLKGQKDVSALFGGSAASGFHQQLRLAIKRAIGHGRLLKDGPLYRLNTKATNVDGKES
Strand = GTTTGGGA; value = -0.185
Strand = GGCCCGGA; value = 0.0936
Strand = CAACGACA; value = -0.0177
Strand = GGGGCCCA; value = -0.12
Strand = AGCATACG; value = 0.0195
Strand = ATGTGATA; value = 0.0249
Strand = ACGATTCC; value = -0.0328
Strand = GCCTTTAA; value = 0.0134
Strand = CTGCTGTC; value = 0.00962
Strand = GGAAAGTA; value = -0.0364
Strand = ACCTCGGG; value = 0.0382
Strand = CAGTGTAA; value = -0.114
Strand = AGGCTAAT; value = -0.133
Strand = ACATCACT; value = -0.118
Strand = CTCAACTA; value = -0.091
Strand = GATTAGCC; value = 0.0745
Strand = TGCTGAAA; value = -0.136
Strand = AACTGGCA; value = -0.159
Strand = CGCAGCCA; value = -0.00466
Strand = TCTCTACA; value = -0.309
Strand = ACGACTAT; value = -0.0204
Strand = GAGCACAA; value = -0.192
Strand = CCAGATTA; value = -0.083
Strand = CACGGCCG; value = 0.36
Strand = GTAGTTTA; value = -0.0194

Study 2
Target: Prothrombin, mature alpha-thrombin (F2, Homo sapiens, UniProt P00734)
Method: aptamer microarray, sandwich
Molecule type: DNA with 2'F-ANA
Matrix: in vitro
Tested at: 200 nM
Setting: whole 15-mer aptamer, many near background
Added: Cy3 exosite-II aptamer, 400 nM
Direction: higher = stronger binding
Measurement: mean fluorescence intensity
Strand: GGTTGGTGTGGTTGG
Modification = 2'F-ANA at 6 7 10 12 13; value = 171 a.u.
Modification = 2'F-ANA at 1 2 3 4 6 7 8 9 10 14; value = 51.5 a.u.
Modification = 2'F-ANA at 2 3 4 5 6 7 8 12 14 15; value = 59.2 a.u.
Modification = 2'F-ANA at 1 4 7 9 10 15; value = 51.8 a.u.
Modification = 2'F-ANA at 3 5 6 7 8 11 13 14 15; value = 87 a.u.
Modification = 2'F-ANA at 3 4 5 7 8 9 10 14 15; value = 54.5 a.u.
Modification = 2'F-ANA at 2 3 6 9 10 12 14 15; value = 279 a.u.
Modification = 2'F-ANA at 1 2 3 5 6 7 8 10 12 13 14 15; value = 112 a.u.
Modification = 2'F-ANA at 1 3 4 8 9 10 14; value = 51.3 a.u.
Modification = 2'F-ANA at 3 4 6 7 9 10 11 13; value = 176 a.u.
Modification = 2'F-ANA at 2 4 7 8 10 11 13 14; value = 60.2 a.u.
Modification = 2'F-ANA at 2 3 4 6 7 8 9 10 11 13 14; value = 144 a.u.
Modification = 2'F-ANA at 5 7 10 14 15; value = 44.4 a.u.
Modification = 2'F-ANA at 1 3 4 5 8 9 10 11 13; value = 59.5 a.u.
Modification = 2'F-ANA at 5 6 7 8 10 11; value = 48.1 a.u.
Modification = 2'F-ANA at 5 6 7 8 9 10 12 14; value = 46.2 a.u.
Modification = 2'F-ANA at 1 2 4 6 8 10 11 12 13 15; value = 60.7 a.u.
Modification = 2'F-ANA at 1 4 5 6 15; value = 57 a.u.

Study 3
Target: RNA binding protein fox-1 homolog 2, RRM domain, GST-SBP tag (RBFOX2, Homo sapiens, UniProt O43251-10, residues 100-194)
Method: RNA Bind-n-Seq
Molecule type: RNA
Matrix: in vitro
Tested at: 365 nM
Setting: natural RNA segment, single round, ends assumed
Relative to: no-protein control
Direction: higher = stronger binding
Measurement: RBNS enrichment (R)
Constant ends, left off below: GGGAGUUCUACAGUCCGACGAUC … UGGAAUUCUCGGGUGCCAA
Target sequence (chain): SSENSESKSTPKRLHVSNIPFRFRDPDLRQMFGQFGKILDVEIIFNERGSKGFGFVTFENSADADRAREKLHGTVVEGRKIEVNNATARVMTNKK
Strand = GCAACAACGAUCCUAUUUGUACCCUAGACCCAGAGACUCAGGCCUCCAGCUCCUGGGAUCCAGGAGUCCAUCCCCAGUCCCCUGGGAUCCUAGUGUCCCUCCCUCCUGCA; value = 1.16
Strand = CACACCACACACUUGUUUAGUGAACCAAAUCUAGAAAGUACCAAGGCAGAGGUAUGCUCCUGCUGUAAUCAGGCAAAUGAGUUCAACUGGAUUUCUUUUGACAAUACUGU; value = 0.339
Strand = GUAGUCAUAGACAUAGAUACUGCAGCCUGCCCUCCUCUUGAGGCUGUUUCUGACAAACUAUCAAGACAUUCCGUCCCUCAUCCACCUCAGCUCCCAAAGGCCCACUGCAG; value = 0.334
Strand = GCAGAGGCUGGAGGCAGGGCCUUGCCCAGAGAUGCCUCCACCGCUGCCUAAGUGGCUGCUGACUGAUGUUGAGGGAACAGACAGGAGAAAUGCAUCCAUUCCUCAGGGAC; value = 0.886
Strand = UUCAGUUCCUUAGUCGUGUCUACUUACCUAGCAGUUUAGAAACUGUCAGUCAUGUAACUGGCAAGGAUCACAGCCCGGUUGGGUGGCAUUCUGUGCCUCUGGCUUGGCUG; value = 0.212
Strand = UGUGUAAAAUCUCCAAAUGGAUGUUACAGCUUUCAGCUUGAACGUUUGUUUCCAGACCUGAUUAAAAUUUGGUUUAUUCUAAUUUCUGUACUAUAUCAUCUGAGGUUUUA; value = 0.372
Strand = AGAUCUGGAAGUAAGCAAAUGUGAAAAUUCCUUUUGGAACCUGACAGAUGCAGCUAAACUAAACAGUGCUUUUCAGACUAGUGUGUGUGUGUGUGUGUGUUCACACAUGU; value = 0.581
Strand = CUCCCUGGCCAACACAUACUUGCAGUGUCAGAUCUGGUACAUGAAUGGCCAUUCUACCCAGAUAGGUUUUAGCUUAUAUAUAGGACAUCAGAUUCCCUGGAAUCCUUGGU; value = 0.329
Strand = GCCAGGCAGAGCUGGUGUGACUUGAGGUGGCGCCAGCCUCUCAGGCAUGGUGGCUGGGUUGGUGAUAUACAGUGCAGCAGAGCUGCCCUCAGACGUGGGACUGCAGAGUC; value = 1.38
Strand = CUCCCCGGCUCUGUGCCGGGGCAGGCACCUGCUGGGGGUUCUGGUUUUUACUUUUUUAAUGUAAGUCUGAGUCUUUGUAAUUAUUGAAUUGUGAGAACAAUUUUGAACAA; value = 0.397
Strand = ACCAGGCUGGCCUUGAACACAGAAAGAGAUUCAUCUGCCUCUGCCUCCUGAGUGCUGGGAUUAAAGGCAAAAGCCACCACAGCCUGUUUUGUUUUGUUUUCGGUUUAAAA; value = 0.44
Strand = GAAGCCUAAGCCUCUGCCUUCAAGCUGGAUCCUGUGCAGGGUGGGCAGGCAAGAACUCAGACAUGCCCAGCCUAGCCCAGGGCGGCCUGCAUCUGGCCCCAGAAGCCUCC; value = 0.645

Study 4
Target: Sal-like protein 4, full length isoform A (SALL4, Homo sapiens, UniProt Q9UJQ4, residues 1-1053)
Sequence of UniProt Q9UJQ4 (whole entry, looked up): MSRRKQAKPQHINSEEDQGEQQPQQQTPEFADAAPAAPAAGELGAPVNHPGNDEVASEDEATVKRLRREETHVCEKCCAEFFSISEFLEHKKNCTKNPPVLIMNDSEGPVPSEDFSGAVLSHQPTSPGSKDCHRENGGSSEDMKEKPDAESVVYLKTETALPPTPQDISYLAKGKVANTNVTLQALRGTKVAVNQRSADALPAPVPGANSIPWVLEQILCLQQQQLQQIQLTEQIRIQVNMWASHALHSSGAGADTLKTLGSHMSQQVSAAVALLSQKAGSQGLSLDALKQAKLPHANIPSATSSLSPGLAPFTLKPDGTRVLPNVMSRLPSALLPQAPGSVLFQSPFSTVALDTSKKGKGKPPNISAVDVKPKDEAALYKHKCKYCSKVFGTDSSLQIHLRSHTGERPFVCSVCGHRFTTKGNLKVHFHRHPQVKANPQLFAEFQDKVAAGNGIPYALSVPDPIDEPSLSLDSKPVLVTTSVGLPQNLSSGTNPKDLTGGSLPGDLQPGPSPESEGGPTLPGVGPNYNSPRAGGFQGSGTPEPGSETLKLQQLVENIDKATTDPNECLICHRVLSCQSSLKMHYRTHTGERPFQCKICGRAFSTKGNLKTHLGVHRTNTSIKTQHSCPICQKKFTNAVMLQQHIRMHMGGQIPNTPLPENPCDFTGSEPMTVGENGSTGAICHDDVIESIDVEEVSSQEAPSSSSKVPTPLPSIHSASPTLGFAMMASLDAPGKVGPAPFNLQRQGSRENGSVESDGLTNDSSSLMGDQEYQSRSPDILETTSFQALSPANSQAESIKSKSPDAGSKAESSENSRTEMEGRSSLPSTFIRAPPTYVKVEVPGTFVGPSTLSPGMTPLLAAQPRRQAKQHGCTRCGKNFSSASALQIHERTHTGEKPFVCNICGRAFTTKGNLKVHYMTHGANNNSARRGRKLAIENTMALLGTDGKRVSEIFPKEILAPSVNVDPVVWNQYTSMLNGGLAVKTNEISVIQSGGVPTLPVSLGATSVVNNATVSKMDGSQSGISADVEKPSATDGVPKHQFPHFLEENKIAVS
Method: universal PBM
Molecule type: double-stranded DNA, one strand shown
Matrix: in vitro
Tested at: 600 nM
Setting: 8-mer, flanks averaged, mean of replicates
Direction: higher = stronger binding
Measurement: E-score
Strand = GGCTGAAA; value = 0.0154
Strand = AGCGCTTC; value = -0.00409
Strand = GCGCAGGA; value = -0.237
Strand = AGCGCCGG; value = -0.423
Strand = CAACGAAC; value = -0.0587
Strand = CTTGGTAC; value = -0.0377
Strand = CACCCTTA; value = -0.0785
Strand = GAACGTGA; value = 0.00872
Strand = ATGGCCTG; value = -0.238
Strand = GTGGGTCA; value = -0.149
Strand = ACTACGCG; value = -0.122
Strand = AAGTGAGC; value = -0.151
Strand = CTGCTCTA; value = 0.0835
Strand = AACCCAAT; value = 0.124
Strand = AGCATAGG; value = -0.172
Strand = AGAAGACC; value = -0.167
Strand = AACGGTTA; value = 0.00865
Strand = AGCTTACC; value = -0.0542
Strand = ATGGCCAC; value = -0.307
Strand = AGACCAAT; value = 0.151
Strand = ACCCGAAT; value = 0.0281
Strand = CCCTCGCC; value = -0.261
Strand = CGATACTC; value = -0.00161
Strand = ATAGCGCG; value = 0.0598

Study 5
Target: Interferon regulatory factor 3, full length, phosphomimetic (IRF3, Homo sapiens, UniProt Q14653, residues 1-427, S386D/S396D/S398D/S402D/T404D/S405D)
Method: protein-binding microarray
Molecule type: double-stranded DNA, one strand shown
Matrix: in vitro
Tested at: 2540 nM top
Setting: 60-bp whole probe
Added: salmon DNA 0.4 mg/ml
Relative to: random background probes
Direction: higher = stronger binding
Measurement: fitted relative affinity
Constant ends, left off below: GCCTAGCAC … GTCTTGATTCGCTTGACGCTGCTG
Residues (chain): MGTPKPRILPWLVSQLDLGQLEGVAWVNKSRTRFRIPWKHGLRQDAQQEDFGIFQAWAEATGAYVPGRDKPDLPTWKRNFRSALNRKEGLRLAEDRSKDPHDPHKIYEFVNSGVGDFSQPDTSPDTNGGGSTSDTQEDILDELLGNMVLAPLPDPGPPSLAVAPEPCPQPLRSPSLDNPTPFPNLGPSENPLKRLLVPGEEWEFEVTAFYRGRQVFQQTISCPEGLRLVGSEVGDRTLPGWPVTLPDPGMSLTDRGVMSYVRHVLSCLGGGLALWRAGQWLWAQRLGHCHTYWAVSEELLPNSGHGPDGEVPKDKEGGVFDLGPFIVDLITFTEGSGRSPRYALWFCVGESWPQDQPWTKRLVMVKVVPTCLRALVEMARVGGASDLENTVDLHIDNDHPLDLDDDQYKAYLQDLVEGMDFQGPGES
Strand = GACTATTCCAGTTTCGAGACGTGCTAG; value = 2.98 z-score
Strand = TTACGACTGGGTATCGGTTAGTGCTAG; value = 0.426 z-score
Strand = TTTTCAGCATCGCTCAGCACGTGCTAG; value = 1.02 z-score
Strand = TTAGGTTTCCGGTTTCGGTTAGTGCTA; value = 6.45 z-score
Strand = TTGGATTTCGGGACTGGATTAGTGCTA; value = 0.719 z-score
Strand = GAAGGTTTCGGACTGGGGACGTGCTAG; value = 4.13 z-score
Strand = GACAATATCGGGTATCGAGACGTGCTA; value = 0.241 z-score
Strand = GACGGTTGCCTTATCCTGACGTGCTAG; value = 3.44 z-score
Strand = GTCGGTTTCGACACTGGGGACGTGCTA; value = 4.62 z-score
Strand = TCAAGATTTTTTTTCCTACTGTGCTAG; value = 0.454 z-score
Strand = TGGACTGCACAAGGGCCAGTGTGCTAG; value = -0.737 z-score
Strand = TTAGGACTGGCGACTGGGTTAGTGCTA; value = -1.15 z-score
Strand = TGAGGTCTCCTACTGCTTTAGTGCTAG; value = -0.00629 z-score
Strand = TTAGATATCGGGACTGGATAAGTGCTA; value = 0.0588 z-score
Strand = CGGATGATCTCTCTGGGCAAGTGCTAG; value = 0.0102 z-score
Strand = TCATATTTTTTTCTAATACTGTGCTAG; value = 0.923 z-score
Strand = GACAGTATCGGTATCGGGACGTGCTAG; value = 4.86 z-score
Strand = TCATTTTTAATGAATGAAACTGTGCTA; value = 1.14 z-score
Strand = GACGGACTGGACTATCGGGATGTGCTA; value = -0.651 z-score
Strand = GTTGAGTTCTGTTGCAAAGGGTGCTAG; value = -0.201 z-score
Strand = TTAGGACTGGGGACTTGGTTAGTGCTA; value = -1.22 z-score
Strand = TCATGTCCCTATTTAAGACTGTGCTAG; value = 1.56 z-score
Strand = TGGTGTCTCTGGCCTGGGTCGGTGCTA; value = -1.16 z-score

Some of these lines once more (study 5):
Strand = TGAGGTCTCCTACTGCTTTAGTGCTAG; value = -0.00629 z-score
Strand = TTAGATATCGGGACTGGATAAGTGCTA; value = 0.0588 z-score
Strand = CGGATGATCTCTCTGGGCAAGTGCTAG; value = 0.0102 z-score
Strand = TCATATTTTTTTCTAATACTGTGCTAG; value = 0.923 z-score
Strand = GACAGTATCGGTATCGGGACGTGCTAG; value = 4.86 z-score
Strand = TCATTTTTAATGAATGAAACTGTGCTA; value = 1.14 z-score
Strand = GACGGACTGGACTATCGGGATGTGCTA; value = -0.651 z-score
Strand = GTTGAGTTCTGTTGCAAAGGGTGCTAG; value = -0.201 z-score
Strand = TTAGGACTGGGGACTTGGTTAGTGCTA; value = -1.22 z-score
Strand = TCATGTCCCTATTTAAGACTGTGCTAG; value = 1.56 z-score
Strand = TGGTGTCTCTGGCCTGGGTCGGTGCTA; value = -1.16 z-score
